Published values from different studies.
Lines come from different studies, so protocols differ.
Cell line: SF-268

`CCCCN1CCN(c2ccc3[nH]c(-c4ccc5[nH]c(-c6cc(OC)c(OC)c(OC)c6)nc5c4)nc3c2)CC1` has a growth percent of 71.8% (SRB; 10 µM, 48 h).
The TGI of `C#C[C@@]1(O)[C@@H](CO)O[C@@H](n2ccc3c(N)ncnc32)[C@@H]1O` is reported as 26.1 µM (SRB; NCI-60 screen).
With `CCCN1CCN(c2ccc3[nH]c(-c4ccc5[nH]c(-c6ccc(OCC)c(OCC)c6)nc5c4)nc3c2)CC1` the growth percent was 15.8% (SRB; 10 µM, 48 h).
The cell growth of `CCOC(=O)CSc1nc(-c2ccc(Cl)cc2)c2c(NC(=O)c3ccccc3)nnc-2[nH]1` is reported as 97.4% (SRB; 10 µM, NCI60 single-dose screen; baseline: untreated).
The GI50 of `O=C(/C=C/C=C/C=C/C1CCCCC1)NC1=C[C@@](O)(/C=C/C=C/C=C/C(=O)NC2=C(O)CCC2=O)[C@@H]2O[C@@H]2C1=O` is reported as 20.8 µM (cell growth, CellTiter-Glo; 78 h).
`O=C1NCCc2[nH]c(-c3ccncc3)cc21` has an IC50 of > 10 µM (MTS; NCI60 panel).
For `CCCN1CCN(c2ccc3nc(-c4ccc5nc(-c6cc(OC)ccc6OC)[nH]c5c4)[nH]c3c2)CC1`, the growth percent was 106% (SRB; 10 µM, 48 h).
For `CSc1nc(-c2ccc(Cl)cc2)c2c(NC(=O)c3ccccc3)nnc-2[nH]1`, the cell growth was 101% (SRB; 10 µM, NCI60 single-dose screen; baseline: untreated).
`CCCCN1CCN(c2ccc3[nH]c(-c4ccc5[nH]c(-c6ccc(OCC)cc6)nc5c4)nc3c2)CC1` gave a growth percent of 77.1% (SRB; 10 µM, 48 h).
For `CCN(CC)c1ccc(C=NNC(=O)CSc2nc3ccccc3c(=O)n2Cc2ccc(S(N)(=O)=O)cc2)c(O)c1`, the TGI was > 100 µM (NCI five-dose screen).
The TGI of `Cn1cncc1C1=CN(c2ncnc3[nH]cnc23)CCS1` is reported as 64.6 µM (CNS cancer).
`O=C(Nc1nnc2n3c(nc(-c4ccc(Cl)cc4)c1-2)SCC3=O)c1ccccc1` has a cell growth of 92.8% (SRB; 10 µM, NCI60 single-dose screen; baseline: untreated).
`CCOc1ccc(-c2nc3cc(-c4nc5cc(N6CCN(C)CC6)ccc5[nH]4)ccc3[nH]2)cc1OCC` gave a growth percent of 19.3% (SRB; 10 µM, 48 h).
With `Cc1n[nH]c2nc(-c3ccc(Cl)cc3)c3c(NC(=O)c4ccccc4)nnc-3n12` the cell growth was 116% (SRB; 10 µM, NCI60 single-dose screen; baseline: untreated).
For `O=C1NC(=NCc2cccs2)S/C1=C\c1ccc2ncccc2c1`, the IC50 was > 10 µM (MTS; NCI60 panel).
For `O=C(Nc1nnc2n3c(=S)[nH][nH]c3nc(-c3ccc(Cl)cc3)c1-2)c1ccccc1`, the cell growth was 103% (SRB; 10 µM, NCI60 single-dose screen; baseline: untreated).
For `C#C[C@@]1(O)[C@@H](CO)O[C@@H](n2cc(F)c3c(N)ncnc32)[C@@H]1O`, the TGI was 78.3 µM (SRB; NCI-60 screen).
`CCCN1CCN(c2ccc3[nH]c(-c4ccc5[nH]c(-c6ccc(C(F)(F)F)cc6)nc5c4)nc3c2)CC1` gave a growth percent of -70.2% (SRB; 10 µM, 48 h).
`NNc1nc(-c2ccc(Cl)cc2)c2c(NC(=O)c3ccccc3)nnc-2[nH]1` gave a cell growth of 109% (SRB; 10 µM, NCI60 single-dose screen; baseline: untreated).

Some of these lines once more:
The TGI of `C#C[C@@]1(O)[C@@H](CO)O[C@@H](n2ccc3c(N)ncnc32)[C@@H]1O` is reported as 26.1 µM (SRB; NCI-60 screen).
The GI50 of `O=C(/C=C/C=C/C=C/C1CCCCC1)NC1=C[C@@](O)(/C=C/C=C/C=C/C(=O)NC2=C(O)CCC2=O)[C@@H]2O[C@@H]2C1=O` is reported as 20.8 µM (cell growth, CellTiter-Glo; 78 h).
